Published values collected from several papers.
± marks the error that the study gave.
Chain of UniProt Q96S38 (whole entry, looked up): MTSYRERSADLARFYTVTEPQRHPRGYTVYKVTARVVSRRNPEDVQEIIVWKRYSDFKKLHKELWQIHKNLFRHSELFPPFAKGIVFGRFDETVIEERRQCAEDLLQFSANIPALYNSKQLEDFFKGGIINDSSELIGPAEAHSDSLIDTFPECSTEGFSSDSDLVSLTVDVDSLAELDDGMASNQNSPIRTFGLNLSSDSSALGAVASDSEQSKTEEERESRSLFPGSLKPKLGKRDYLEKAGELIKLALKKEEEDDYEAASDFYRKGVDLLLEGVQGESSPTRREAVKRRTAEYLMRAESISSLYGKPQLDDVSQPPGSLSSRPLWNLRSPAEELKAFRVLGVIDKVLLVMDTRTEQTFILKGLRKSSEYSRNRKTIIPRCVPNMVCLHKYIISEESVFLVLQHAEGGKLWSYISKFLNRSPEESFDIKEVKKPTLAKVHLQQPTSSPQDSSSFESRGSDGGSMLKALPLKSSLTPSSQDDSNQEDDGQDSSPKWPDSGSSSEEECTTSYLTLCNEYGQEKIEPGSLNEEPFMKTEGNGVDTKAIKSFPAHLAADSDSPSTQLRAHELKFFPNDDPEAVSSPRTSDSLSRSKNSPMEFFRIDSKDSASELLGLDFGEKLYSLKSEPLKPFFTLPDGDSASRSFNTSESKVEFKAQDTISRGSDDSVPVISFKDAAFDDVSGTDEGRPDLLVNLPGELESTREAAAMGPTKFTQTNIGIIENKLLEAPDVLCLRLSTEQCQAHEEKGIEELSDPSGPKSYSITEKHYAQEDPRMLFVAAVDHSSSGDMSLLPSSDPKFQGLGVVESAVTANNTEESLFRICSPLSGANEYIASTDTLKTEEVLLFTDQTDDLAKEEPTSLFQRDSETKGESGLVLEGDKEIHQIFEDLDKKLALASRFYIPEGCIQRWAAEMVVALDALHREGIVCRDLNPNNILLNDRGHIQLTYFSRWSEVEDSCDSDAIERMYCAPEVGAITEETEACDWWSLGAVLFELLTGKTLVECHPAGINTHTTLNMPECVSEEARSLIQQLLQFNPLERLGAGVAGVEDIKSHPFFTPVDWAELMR

| SMILES | tested on | assay | system | setting | how to read | endpoint | result |
| --- | --- | --- | --- | --- | --- | --- | --- |
| CC(C)C[C@H](NC(=O)C[C@H](O)[C@H](CC(C)C)NC(=O)[C@H](Cc1c[nH]cn1)NC(=O)CNC(=O)[C@@H](NC(=O)[C@H](C)NC(=O)[C@H](Cc1c[nH]c2ccccc12)NC(=O)[C@H](CCC(N)=O)NC(=O)[C@@H](Cc1ccccc1)NC(=O)COCCOCCNC(=O)CCC(C(=O)O)N1CCN(CC(=O)O)CCN(CC(=O)O)CCN(CC(=O)O)CC1)C(C)C)C(N)=O (stereo partly drawn) [lutetium-177 labelled] | – | – | female BALB/c nu/nu mice, bladder | intravenous, 100 pmol, 24 h, together with: PA 300 µg | – | tissue uptake | 0.3 ± 0.1 %ID/g |
| NC(=O)c1cnc2[nH]ccc2c1N[C@@H]1[C@@H]2CC3C[C@H]1C[C@@](O)(C3)C2 | – | CD8+ effector T cells, flow cytometry | Japanese humans, peripheral blood | 20 mg single dose | baseline: baseline | percent change | 0.42% |
| COc1cc2c(c(O)c1OC)C(=O)c1c(cc(C)c(O[C@@H]3O[C@H](CO)[C@@H](O)[C@H](O)[C@H]3O)c1OC)C2=O | HepaRG co-cultured with HK-2 | MTT | – | 266.67 µM, 24 h | baseline: untreated control | cell viability | 37.2 ± 4.93% |
| CC[C@H](CO)N(CCN(N=O)[C@H](CC)CO)N=O | Salmonella typhimurium | – | TA1535, water | concentration not given, plate incorporation, no S9 | – | lowest mutagenic concentration | 5000 µg/plate |
| CN1CC2c3ccccc3Oc3ccc(Cl)cc3C2C1 (stereo not drawn) | HTR1A (Homo sapiens, UniProt P08908, K345A) | agonist | – | – | – | EC50 | 9.12 nM |
| COc1cc(O)c2c(c1)C(=O)c1cc(C)cc(O)c1C2=O | HepaRG co-cultured with HK-2 | MTT | – | 33.33 µM, 24 h | baseline: untreated control | cell viability | 97.2 ± 9.23% |
| CCOC(=O)CCNc1cc(N2CCc3ccccc3CC2)nc(-c2cccnc2)n1 | OCI-Ly1 | – | – | 0.5 µM, 120 h | – | viability | 99% |
| CN1CCN(c2cnc3c(cc(C(=O)NCc4ccc(Cl)cc4)c(=O)n3CC(=O)N3CC(C)(F)C3)n2)C1=O | human cytomegalovirus | – | MRC-5, AD169-GFP | – | baseline: CC50 over EC50 | selectivity ratio | > 177 |
| Cc1nc2c(Cl)cccn2c1NC(=O)c1ccc(-c2ccc(N(C)C)cc2)o1 | COS-7 | – | – | 10 µM, 24 h, 0.1% DMSO, unit not given | baseline: vehicle control | necrotic cells | 0.6 ± 0.31 |
| CC(C)C[C@H](NC(=O)C[C@H](O)[C@H](CC(C)C)NC(=O)[C@H](Cc1c[nH]cn1)NC(=O)CNC(=O)[C@@H](NC(=O)[C@H](C)NC(=O)[C@H](Cc1c[nH]c2ccccc12)NC(=O)[C@H](CCC(N)=O)NC(=O)[C@@H](Cc1ccccc1)NC(=O)COCCOCCNC(=O)CCC(C(=O)O)N1CCN(CC(=O)O)CCN(CC(=O)O)CC1)C(C)C)C(N)=O (stereo partly drawn) [lutetium-177 labelled] | – | – | female BALB/c nu/nu mice, pancreas | intravenous, 50 pmol, 24 h | – | tissue uptake | 0.1 ± 0.02 %ID/g |
| COc1cccc2c1C(=O)c1c(O)c3c(c(O)c1C2=O)C[C@@](O)(C(=O)CO)C[C@@H]3O[C@H]1C[C@H](N)[C@H](O)[C@H](C)O1 | COS-7 | WST-8 | – | 100 µM, 24 h, 0.1% DMSO, unit not given | baseline: control | metabolic activity | 0.7 ± 0.33 |
| CCc1cc(C(=O)NC)c2nccc(N3CCc4c(cc(Cn5ccnc5)cc4-c4cn(C)nc4C(F)(F)F)C3=O)c2c1 | – | – | Sprague Dawley rat, male, plasma | oral, 50 mg/kg once daily, 7 days, toxicokinetic satellite group | – | AUC extrapolated fraction | 0.1% |
| COc1cc2c(c(OC)c1OC)C(=O)c1c(cc(C)c(O)c1OC)C2=O | HepaRG co-cultured with HK-2 | MTT | – | 66.67 µM, 48 h | baseline: untreated control | cell viability | 77.7 ± 7.2% |
| CC[C@@H]1[C@H](F)C(=O)N[C@@H]1COc1nccc2cc(C(N)=O)c(OC)cc12 | RPS6KC1 (Homo sapiens, UniProt Q96S38) | ATP-site binding, ActivX kinase profiling | THP-1 cell lysate | RSKL1 domain 1 ATP-site probe peptide | – | IC50 | > 5000 nM |
| Clc1ccc(C(c2c[nH]c3ccccc23)c2c[nH]c3ccccc23)cc1 | COS-7 | – | – | 30 µM, 24 h, 0.1% DMSO, unit not given | baseline: vehicle control | confluence | 0.28 ± 0.03 |
| O=C(O)c1cc(O)c2c(c1)C(=O)c1cccc(O)c1C2=O | HepaRG co-cultured with HK-2 | MTT | – | 66.67 µM, 48 h | baseline: untreated control | cell viability | 16.4 ± 2.2% |
| COCCOCc1ccc(-c2cc3onc(-c4ccccc4)c3c(=O)n2C)cc1 | COS-7 | – | – | 10 µM, 24 h, 0.1% DMSO, unit not given | baseline: vehicle control | necrotic cells | 1.02 ± 0.16 |
| Cc1cc(Nc2ccc(S(F)(F)(F)(F)F)cc2)n2nc(C(C)(F)F)nc2n1 | Plasmodium vivax | 12-lead ECG | malaria patients | oral, 800 mg, increase above 30 ms | – | patients with QTcB increase | 0% |

Repeated from above:
| SMILES | tested on | assay | system | setting | how to read | endpoint | result |
| --- | --- | --- | --- | --- | --- | --- | --- |
| CN1CC2c3ccccc3Oc3ccc(Cl)cc3C2C1 (stereo not drawn) | HTR1A (Homo sapiens, UniProt P08908, K345A) | agonist | – | – | – | EC50 | 9.12 nM |
| Clc1ccc(C(c2c[nH]c3ccccc23)c2c[nH]c3ccccc23)cc1 | COS-7 | – | – | 30 µM, 24 h, 0.1% DMSO, unit not given | baseline: vehicle control | confluence | 0.28 ± 0.03 |
